Measurements from different studies.
Each numbered part is a random draw from the data of one study; scales do not carry over between parts. Changes are numbered by the printed parent chain.

Sample 1 — target: inorganic phosphate, free oxyanion; technique: microfluidic competitive inhibition; matrix: in vitro, cell-free expressed; concentration: not given; direction: lower = stronger binding
Notes: derived from inhibition constants, unchanged parent 615000 nM
Starting sequence: PafA, mature enzyme, eGFP fusion (Elizabethkingia meningoseptica, UniProt Q9KJX5); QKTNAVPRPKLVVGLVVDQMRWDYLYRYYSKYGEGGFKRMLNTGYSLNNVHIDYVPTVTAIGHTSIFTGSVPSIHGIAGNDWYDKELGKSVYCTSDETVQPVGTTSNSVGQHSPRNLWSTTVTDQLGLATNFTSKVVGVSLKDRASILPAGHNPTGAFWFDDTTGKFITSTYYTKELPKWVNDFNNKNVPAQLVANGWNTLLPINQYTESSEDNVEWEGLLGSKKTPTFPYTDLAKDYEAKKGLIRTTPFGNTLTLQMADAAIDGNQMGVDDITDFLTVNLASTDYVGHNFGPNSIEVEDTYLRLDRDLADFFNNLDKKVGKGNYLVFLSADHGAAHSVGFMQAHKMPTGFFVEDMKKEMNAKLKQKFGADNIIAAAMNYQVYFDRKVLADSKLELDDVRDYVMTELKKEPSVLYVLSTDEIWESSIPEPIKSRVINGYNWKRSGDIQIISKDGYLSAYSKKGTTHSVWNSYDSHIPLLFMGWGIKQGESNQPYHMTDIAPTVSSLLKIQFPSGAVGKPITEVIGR
Substitution	phosphate dissociation constant [µM]
P190G	561
D271V	578
T104G	630
P512V	349
S504V	605
A375V	697
E218V	215
V503A	544

Sample 2 — read-out: binding; technique: phage display NGS; form: peptide; concentration: concentration not given; reference: input library
Target: UDP-N-acetylglucosamine--peptide N-acetylglucosaminyltransferase 110 kDa subunit (OGT, Homo sapiens, UniProt O15294)
Chain of UniProt O15294 (whole entry, looked up): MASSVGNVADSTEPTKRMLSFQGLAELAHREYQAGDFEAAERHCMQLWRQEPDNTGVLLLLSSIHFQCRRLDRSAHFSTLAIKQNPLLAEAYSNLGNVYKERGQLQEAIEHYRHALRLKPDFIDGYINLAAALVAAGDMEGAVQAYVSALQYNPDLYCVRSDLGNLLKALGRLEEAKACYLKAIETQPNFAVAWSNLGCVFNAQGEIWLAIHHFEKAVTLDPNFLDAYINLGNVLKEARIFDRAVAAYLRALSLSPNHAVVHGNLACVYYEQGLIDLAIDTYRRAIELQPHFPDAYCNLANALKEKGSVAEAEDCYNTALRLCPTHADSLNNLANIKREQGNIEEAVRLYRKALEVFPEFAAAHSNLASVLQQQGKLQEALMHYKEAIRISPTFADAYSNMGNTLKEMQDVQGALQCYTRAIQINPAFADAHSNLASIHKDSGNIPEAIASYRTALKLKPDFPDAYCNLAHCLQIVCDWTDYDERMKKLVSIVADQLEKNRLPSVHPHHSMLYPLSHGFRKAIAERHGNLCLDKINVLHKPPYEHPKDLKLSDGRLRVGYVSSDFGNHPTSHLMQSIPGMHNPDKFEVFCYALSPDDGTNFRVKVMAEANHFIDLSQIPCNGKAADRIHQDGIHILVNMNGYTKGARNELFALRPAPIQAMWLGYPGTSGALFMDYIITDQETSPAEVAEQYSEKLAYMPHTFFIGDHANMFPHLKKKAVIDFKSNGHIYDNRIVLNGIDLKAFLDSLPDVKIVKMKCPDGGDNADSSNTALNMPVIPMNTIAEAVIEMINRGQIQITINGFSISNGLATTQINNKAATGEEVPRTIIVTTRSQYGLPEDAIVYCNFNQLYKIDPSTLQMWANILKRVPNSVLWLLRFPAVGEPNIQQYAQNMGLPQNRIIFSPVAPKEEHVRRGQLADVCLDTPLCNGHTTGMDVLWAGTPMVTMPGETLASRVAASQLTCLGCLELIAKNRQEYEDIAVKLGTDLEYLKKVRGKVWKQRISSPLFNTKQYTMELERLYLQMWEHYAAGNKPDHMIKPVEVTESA
Molecule	enrichment fold change
HRDLHFHTSWNYHRI	3.63
SSNEPHYPPKYQMVI	2.43
HGHRLRSESHTHVRQ	2.38
HDQRHHQRETKGEVH	4.38
RVQHTFQHETGKHHH	6.05
HYTMEHNWAHQEQHH	6.17
HVYHKNHADTHAVAH	8.65
QPHHQHYFGVNHTQR	9.15

Further values, each from its own experiment
SMILES	target or system	assay	system	setting	quantity	value
CCOC(=O)c1cc2cc(-c3cc(C(=O)NCc4ccc(C(=O)O)cc4)nn3C)ccc2[nH]1	HTR2A (Homo sapiens, UniProt P28223)	binding, radioligand binding	–	10 µM	inhibition	19.1%
O=C1CCC(N2Cc3c(ccc4c3OCC43CCN(Cc4ccccc4)CC3)C2=O)C(=O)N1 (stereo not shown)	–	–	ICR mouse, male	intravenous, 1 mg/kg, 1 h	plasma concentration	124 ng/mL
Cc1cc(NC(=O)c2cccc(S(F)(F)(F)(F)F)c2)cc(-n2ccn3nc(-c4cccnc4)cc23)c1	U2OS, HEK-293T and MRC9	–	–	10-fold recommended concentration, 24 h	healthy cells	< 50%

A few entries again (sample 2):
Molecule	enrichment fold change
RVQHTFQHETGKHHH	6.05
HYTMEHNWAHQEQHH	6.17
